# Results collected from several papers.
# Parts stem from different laboratories: compare values within a part only. “And” joins repeats or separate records; there may be more than shown.
# UniProt Q8NEV4, sequence (whole entry, looked up): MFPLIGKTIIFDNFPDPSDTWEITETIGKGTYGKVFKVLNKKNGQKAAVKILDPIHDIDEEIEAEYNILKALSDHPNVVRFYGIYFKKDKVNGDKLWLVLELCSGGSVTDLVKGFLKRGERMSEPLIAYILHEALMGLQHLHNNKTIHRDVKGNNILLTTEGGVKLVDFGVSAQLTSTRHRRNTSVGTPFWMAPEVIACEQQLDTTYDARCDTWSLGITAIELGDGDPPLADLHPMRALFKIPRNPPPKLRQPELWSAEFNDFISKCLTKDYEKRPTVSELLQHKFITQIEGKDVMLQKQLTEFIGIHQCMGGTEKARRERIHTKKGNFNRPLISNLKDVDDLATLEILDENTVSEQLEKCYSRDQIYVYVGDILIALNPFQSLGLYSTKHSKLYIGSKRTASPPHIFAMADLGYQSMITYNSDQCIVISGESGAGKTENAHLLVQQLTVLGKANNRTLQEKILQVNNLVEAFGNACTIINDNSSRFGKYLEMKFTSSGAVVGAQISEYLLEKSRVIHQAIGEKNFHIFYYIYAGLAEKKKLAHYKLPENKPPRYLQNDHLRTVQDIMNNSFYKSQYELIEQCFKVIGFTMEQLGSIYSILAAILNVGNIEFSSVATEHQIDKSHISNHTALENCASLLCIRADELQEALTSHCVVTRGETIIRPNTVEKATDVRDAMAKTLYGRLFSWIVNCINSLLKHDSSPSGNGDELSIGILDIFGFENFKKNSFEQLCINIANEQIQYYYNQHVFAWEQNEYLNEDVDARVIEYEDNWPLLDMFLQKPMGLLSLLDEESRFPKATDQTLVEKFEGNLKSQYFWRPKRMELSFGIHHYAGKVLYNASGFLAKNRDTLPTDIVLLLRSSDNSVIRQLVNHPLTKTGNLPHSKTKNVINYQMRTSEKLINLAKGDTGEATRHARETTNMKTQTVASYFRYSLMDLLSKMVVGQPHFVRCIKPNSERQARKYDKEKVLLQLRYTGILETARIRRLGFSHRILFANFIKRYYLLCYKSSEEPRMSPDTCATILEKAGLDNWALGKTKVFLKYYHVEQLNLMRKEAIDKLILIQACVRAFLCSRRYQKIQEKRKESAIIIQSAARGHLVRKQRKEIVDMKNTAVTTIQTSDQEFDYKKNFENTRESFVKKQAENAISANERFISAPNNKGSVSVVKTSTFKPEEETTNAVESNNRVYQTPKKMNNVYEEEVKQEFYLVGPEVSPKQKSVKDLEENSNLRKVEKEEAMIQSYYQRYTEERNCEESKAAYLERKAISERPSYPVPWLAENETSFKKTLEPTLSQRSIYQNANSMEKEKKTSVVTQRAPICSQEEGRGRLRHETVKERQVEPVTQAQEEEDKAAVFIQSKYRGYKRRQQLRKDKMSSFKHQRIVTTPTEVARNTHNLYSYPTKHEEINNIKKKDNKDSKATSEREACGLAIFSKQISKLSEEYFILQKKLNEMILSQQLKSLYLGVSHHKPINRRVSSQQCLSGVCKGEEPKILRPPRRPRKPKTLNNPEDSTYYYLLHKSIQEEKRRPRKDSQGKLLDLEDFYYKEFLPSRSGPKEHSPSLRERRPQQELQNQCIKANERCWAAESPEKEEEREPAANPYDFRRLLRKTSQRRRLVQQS
# UniProt O95747, sequence (whole entry, looked up): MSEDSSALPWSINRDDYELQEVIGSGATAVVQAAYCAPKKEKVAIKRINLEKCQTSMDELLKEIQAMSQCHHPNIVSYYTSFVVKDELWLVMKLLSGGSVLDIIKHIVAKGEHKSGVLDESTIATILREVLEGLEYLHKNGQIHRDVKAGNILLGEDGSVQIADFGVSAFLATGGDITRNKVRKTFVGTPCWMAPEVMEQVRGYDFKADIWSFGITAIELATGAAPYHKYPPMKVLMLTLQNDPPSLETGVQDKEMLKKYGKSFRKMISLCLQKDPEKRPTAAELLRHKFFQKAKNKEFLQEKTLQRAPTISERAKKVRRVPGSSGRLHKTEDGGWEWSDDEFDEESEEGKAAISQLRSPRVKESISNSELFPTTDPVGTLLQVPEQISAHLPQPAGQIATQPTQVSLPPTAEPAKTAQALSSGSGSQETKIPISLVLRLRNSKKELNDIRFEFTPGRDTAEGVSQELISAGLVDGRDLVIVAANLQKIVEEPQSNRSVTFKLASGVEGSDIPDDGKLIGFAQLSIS

# Series 1 — read-out: enzyme activity; mode: inhibitor; concentration: 0.5 µM; relative to: control
# Target: Dual specificity mitogen-activated protein kinase kinase 2 (MAP2K2, Homo sapiens, UniProt P36507)
# UniProt P36507, sequence (whole entry, looked up): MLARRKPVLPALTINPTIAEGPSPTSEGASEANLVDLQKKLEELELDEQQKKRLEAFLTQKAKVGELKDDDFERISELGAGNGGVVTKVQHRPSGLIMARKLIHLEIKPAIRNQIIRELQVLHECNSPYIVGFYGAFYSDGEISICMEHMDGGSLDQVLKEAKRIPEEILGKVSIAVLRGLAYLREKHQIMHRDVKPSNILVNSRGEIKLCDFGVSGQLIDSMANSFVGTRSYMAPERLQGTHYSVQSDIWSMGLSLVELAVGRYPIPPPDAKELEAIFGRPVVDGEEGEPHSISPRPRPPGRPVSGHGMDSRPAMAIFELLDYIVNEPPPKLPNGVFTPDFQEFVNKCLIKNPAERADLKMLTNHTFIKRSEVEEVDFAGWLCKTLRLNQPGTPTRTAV
SMILES,remaining activity [%]
O=S(=O)(c1cccc2cnccc12)N1CCCNCC1,117
CNC(=O)c1cc(Oc2ccc(NC(=O)Nc3ccc(Cl)c(C(F)(F)F)c3)cc2)ccn1,89.7
Cc1ccc(Nc2nccc(N(C)c3ccc4c(C)n(C)nc4c3)n2)cc1S(N)(=O)=O,94.8
OCC(O)CCON=C1C(c2c(O)[nH]c3ccccc23)=Nc2ccccc21 (stereo not drawn),86.5
O=C(O)c1ccc2c3c1cccc3c(=O)n1c3ccccc3nc21,105
NCCNc1ncc(C(N)=O)c(Nc2cccc(C(F)(F)F)c2)n1,103
COc1ccc(OC)c2c(=S)c3ccccc3[nH]c12,100
O=c1c2ccccc2[nH]c(=S)n1CCN1CCC(=C(c2ccc(F)cc2)c2ccc(F)cc2)CC1,101
O=C(CCCc1ccc(-c2ccccc2F)cc1)Nc1ccc(O)cc1,95.1
Cn1sc(=O)n(Cc2ccccc2)c1=O,101
Nc1[nH]nc2nc3ccccc3nc12,104
CCOC(=O)c1c(C)[nH]c(/C=C2\C(=O)Nc3ccccc32)c1C,102
CO[C@H]1C[C@@H]2CC[C@@H](C)[C@@](O)(O2)C(=O)C(=O)N2CCCC[C@H]2C(=O)O[C@H]([C@H](C)C[C@@H]2CC[C@@H](O)[C@H](OC)C2)CC(=O)[C@H](C)/C=C(\C)[C@@H](O)[C@@H](OC)C(=O)[C@H](C)C[C@H](C)/C=C/C=C/C=C/1C,103
Cn1c2ccccc2c2c3c(c4c5ccccc5n(CCC#N)c4c21)CNC3=O,92.5
N#CC(C#N)=C(N)/C(C#N)=C/c1ccc(O)cc1,103
O=C1NC(=O)C(c2cn(CCCn3ccnc3)c3ccccc23)=C1Nc1ccccc1,102
CN(C)c1ccc(C=C2C(=O)Nc3ccccc32)cc1,99.4
COc1ccc(CNC(=O)Nc2ncc([N+](=O)[O-])s2)cc1,73.5
Cc1cccc(-c2[nH]c(C(C)(C)C)nc2-c2ccc3c(c2)OCO3)n1,108
COc1ccc(C(=O)Nc2sc3c(c2C(N)=O)CCCC3)cc1OC,95.3

# Series 2 — read-out: cell-free assay; method: competition with immobilised ligand; concentration: 1 µM
# Compound: CC(=O)Nc1c(C(C)=O)c(=O)n(C)c2nc(-c3ccc(Cl)cc3Cl)c(-c3ccc(Cl)cc3)cc12
target,remaining binding
"Interleukin-1 receptor-associated kinase 1 (IRAK1, Homo sapiens, UniProt P51617)",97%
"Rhodopsin kinase GRK7 (GRK7, Homo sapiens, UniProt Q8WTQ7)",100%
"Serine/threonine-protein kinase 26 (STK26, Homo sapiens, UniProt Q9P289)",87%
"Serine/threonine-protein kinase D1 (PRKD1, Homo sapiens, UniProt Q15139)",100%
"Phosphatidylinositol 4,5-bisphosphate 3-kinase catalytic subunit alpha isoform (PIK3CA, Homo sapiens, UniProt P42336)",100%
"Tyrosine-protein kinase JAK1, JH1 (JAK1, Homo sapiens, UniProt P23458)",100%
"Serine/threonine-protein kinase 33 (STK33, Homo sapiens, UniProt Q9BYT3)",100%
"Serine/threonine-protein kinase NIM1 (NIM1K, Homo sapiens, UniProt Q8IY84)",100%
"Ribosomal protein S6 kinase alpha-5, N-terminal kinase domain (RPS6KA5, Homo sapiens, UniProt O75582)",100%
"Serine/threonine-protein kinase OSR1 (OXSR1, Homo sapiens, UniProt O95747)",93%
"Myosin-IIIa (MYO3A, Homo sapiens, UniProt Q8NEV4)",100%

# Series 3 — read-out: enzyme activity; mode: inhibitor; concentration: 77 µM; relative to: untreated
# Target: DNA polymerase theta, ATPase domain (POLQ, Homo sapiens, UniProt O75417)
# UniProt O75417, sequence (whole entry, unmodified, looked up): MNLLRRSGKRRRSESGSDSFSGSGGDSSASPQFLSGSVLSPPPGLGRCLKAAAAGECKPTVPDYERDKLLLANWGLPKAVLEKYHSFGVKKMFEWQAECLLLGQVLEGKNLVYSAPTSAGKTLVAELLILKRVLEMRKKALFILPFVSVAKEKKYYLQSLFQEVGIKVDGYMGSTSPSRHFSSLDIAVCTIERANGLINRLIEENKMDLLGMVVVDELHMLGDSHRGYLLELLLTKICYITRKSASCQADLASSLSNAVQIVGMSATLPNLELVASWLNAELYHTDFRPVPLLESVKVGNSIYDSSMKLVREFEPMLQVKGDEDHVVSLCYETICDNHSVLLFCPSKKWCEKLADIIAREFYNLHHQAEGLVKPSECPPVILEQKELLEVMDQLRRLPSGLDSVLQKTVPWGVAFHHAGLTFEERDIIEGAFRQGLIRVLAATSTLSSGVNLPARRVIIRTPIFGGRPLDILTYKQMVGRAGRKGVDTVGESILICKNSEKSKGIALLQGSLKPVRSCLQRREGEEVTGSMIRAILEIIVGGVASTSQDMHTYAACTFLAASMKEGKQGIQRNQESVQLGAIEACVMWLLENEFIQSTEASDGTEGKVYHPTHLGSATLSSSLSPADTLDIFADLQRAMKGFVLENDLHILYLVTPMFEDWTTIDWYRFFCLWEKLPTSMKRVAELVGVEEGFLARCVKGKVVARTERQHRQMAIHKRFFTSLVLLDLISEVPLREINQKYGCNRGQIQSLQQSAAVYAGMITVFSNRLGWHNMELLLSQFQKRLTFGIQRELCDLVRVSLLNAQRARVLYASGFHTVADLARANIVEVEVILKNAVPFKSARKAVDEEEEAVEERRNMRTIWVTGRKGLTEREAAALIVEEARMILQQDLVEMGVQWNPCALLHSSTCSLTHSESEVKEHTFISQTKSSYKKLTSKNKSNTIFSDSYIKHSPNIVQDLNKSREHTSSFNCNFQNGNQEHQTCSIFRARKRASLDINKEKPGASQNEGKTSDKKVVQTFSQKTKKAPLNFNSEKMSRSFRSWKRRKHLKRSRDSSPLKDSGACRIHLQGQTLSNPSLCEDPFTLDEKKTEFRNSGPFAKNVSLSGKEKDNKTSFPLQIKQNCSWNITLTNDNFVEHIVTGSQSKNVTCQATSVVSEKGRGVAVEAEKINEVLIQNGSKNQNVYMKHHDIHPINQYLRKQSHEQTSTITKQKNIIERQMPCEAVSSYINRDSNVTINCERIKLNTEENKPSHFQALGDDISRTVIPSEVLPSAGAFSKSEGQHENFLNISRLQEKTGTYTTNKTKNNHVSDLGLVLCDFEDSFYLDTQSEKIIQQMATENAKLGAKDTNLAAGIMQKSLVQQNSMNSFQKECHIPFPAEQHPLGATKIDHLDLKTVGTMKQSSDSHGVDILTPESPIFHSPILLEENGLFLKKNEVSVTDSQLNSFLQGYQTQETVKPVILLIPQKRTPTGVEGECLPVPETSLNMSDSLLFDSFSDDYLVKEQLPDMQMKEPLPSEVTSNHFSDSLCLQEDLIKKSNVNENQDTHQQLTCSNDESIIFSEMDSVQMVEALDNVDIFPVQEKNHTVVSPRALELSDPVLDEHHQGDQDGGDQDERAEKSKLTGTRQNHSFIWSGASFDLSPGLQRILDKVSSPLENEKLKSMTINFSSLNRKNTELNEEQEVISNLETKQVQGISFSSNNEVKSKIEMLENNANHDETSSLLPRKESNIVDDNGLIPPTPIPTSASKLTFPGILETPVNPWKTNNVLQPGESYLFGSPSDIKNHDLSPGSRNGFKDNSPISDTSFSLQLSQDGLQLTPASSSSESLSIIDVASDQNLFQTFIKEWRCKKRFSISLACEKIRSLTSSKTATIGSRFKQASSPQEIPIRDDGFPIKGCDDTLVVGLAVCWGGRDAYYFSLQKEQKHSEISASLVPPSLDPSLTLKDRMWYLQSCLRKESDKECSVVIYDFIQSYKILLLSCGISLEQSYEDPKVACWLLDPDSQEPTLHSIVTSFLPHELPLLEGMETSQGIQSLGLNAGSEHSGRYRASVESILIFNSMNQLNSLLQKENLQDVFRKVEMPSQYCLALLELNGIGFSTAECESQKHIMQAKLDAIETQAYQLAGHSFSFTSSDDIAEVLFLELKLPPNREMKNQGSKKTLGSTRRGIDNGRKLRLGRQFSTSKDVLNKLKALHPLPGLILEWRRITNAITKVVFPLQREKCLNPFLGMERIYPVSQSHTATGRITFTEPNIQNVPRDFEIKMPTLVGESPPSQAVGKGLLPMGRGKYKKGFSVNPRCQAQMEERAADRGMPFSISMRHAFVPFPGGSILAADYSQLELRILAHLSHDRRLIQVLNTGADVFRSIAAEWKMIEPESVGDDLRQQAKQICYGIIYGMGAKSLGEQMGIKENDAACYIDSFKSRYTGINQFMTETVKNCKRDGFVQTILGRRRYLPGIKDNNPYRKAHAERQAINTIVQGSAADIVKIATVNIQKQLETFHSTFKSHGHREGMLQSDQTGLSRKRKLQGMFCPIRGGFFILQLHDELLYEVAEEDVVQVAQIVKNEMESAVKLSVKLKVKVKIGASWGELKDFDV
SMILES,remaining activity
NC1(C(=O)O)CCCCC1,102%
N[C@@H](Cc1c[nH]c2ccccc12)C(=O)O,96.4%
C[C@@H]1C[C@H]2[C@@H]3C[C@H](F)C4=CC(=O)C=C[C@]4(C)[C@@]3(Cl)[C@@H](O)C[C@]2(C)[C@H]1C(=O)COC(=O)C(C)(C)C,85%
N#CCNC(=O)c1ccc(-c2ccnc(Nc3ccc(N4CCOCC4)cc3)n2)cc1,102% and 106% and 103%
OCc1ccc(O[C@@H]2O[C@H](CO)[C@@H](O)[C@H](O)[C@H]2O)cc1,99.8%
COc1cc([S+](C)[O-])ccc1-c1nc2cccnc2[nH]1 (stereo not drawn),91.7%
O=c1[nH]c(=O)n([C@H]2C[C@H](O)[C@@H](CO)O2)cc1I,109%
CCn1cc(C(=O)O)c(=O)c2cc(F)c(N3CCNCC3)nc21,93.2%
CC(=O)c1cc2ccccc2oc1=O,106%

# Series 4 — medium: plasma; route: oral
# SMILES: COc1ccc(-c2c(Nc3ccccn3)[nH]c3c(C4=CCCCC4)c(-c4ccccc4)nn3c2=O)cc1
test,test system,setting,"plasma concentration, geometric mean [ng/mL]"
LC-MS/MS,human,"50 mg once daily, 0 h, cycle 1",1070
LC-MS/MS,human,"200 mg twice daily, 0.5 h",10300
,human patients,"400 mg once daily, 24 h, cycle 1",1690
,human patients,"100 mg once daily, 3 h, cycle 1",3480
LC-MS/MS,human,"200 mg twice daily, 8 h",9530
LC-MS/MS,human,"200 mg twice daily, 3 h, single dose",1320
LC-MS/MS,human,"200 mg twice daily, 2 h, single dose",1020
,human patients,"200 mg once daily, 6 h, cycle 1",4870

# For quick reference, copied from above (series 3):
SMILES,remaining activity
COc1cc([S+](C)[O-])ccc1-c1nc2cccnc2[nH]1 (stereo not drawn),91.7%
N#CCNC(=O)c1ccc(-c2ccnc(Nc3ccc(N4CCOCC4)cc3)n2)cc1,102% and 106% and 103%
CCn1cc(C(=O)O)c(=O)c2cc(F)c(N3CCNCC3)nc21,93.2%
O=c1[nH]c(=O)n([C@H]2C[C@H](O)[C@@H](CO)O2)cc1I,109%
CC(=O)c1cc2ccccc2oc1=O,106%
C[C@@H]1C[C@H]2[C@@H]3C[C@H](F)C4=CC(=O)C=C[C@]4(C)[C@@]3(Cl)[C@@H](O)C[C@]2(C)[C@H]1C(=O)COC(=O)C(C)(C)C,85%
NC1(C(=O)O)CCCCC1,102%
